Measurements from different studies.
Parts stem from different laboratories: compare values within a part only. “And” joins repeats or separate records; there may be more than shown. pIC50: −log10 of the molar value.

Set 1
Compound: C[C@@H]1CN(c2ccc(-c3cc(C(=O)NCCOCCOCCOCCOCCOCCOCCNC(=O)/C=C/c4[nH]cc(C(=O)N[C@@H](CC(N)=O)c5ccc(F)c(Cl)c5)c4-c4ccc(Cl)cc4F)ccc3F)cc2NC(=O)c2ccc(F)cc2C(F)(F)F)C[C@H](C)N1C
Read-out: thermal unfolding
Technique: differential scanning fluorimetry
Tested at: 5.5 µM
Reading: higher = more unfolded
WDR5: WD repeat-containing protein 5 (WDR5, Homo sapiens, UniProt P61964)
DCAF1: DDB1- and CUL4-associated factor 1 (DCAF1, Homo sapiens, UniProt Q9Y4B6)
Chain of UniProt Q9Y4B6 (whole entry, looked up): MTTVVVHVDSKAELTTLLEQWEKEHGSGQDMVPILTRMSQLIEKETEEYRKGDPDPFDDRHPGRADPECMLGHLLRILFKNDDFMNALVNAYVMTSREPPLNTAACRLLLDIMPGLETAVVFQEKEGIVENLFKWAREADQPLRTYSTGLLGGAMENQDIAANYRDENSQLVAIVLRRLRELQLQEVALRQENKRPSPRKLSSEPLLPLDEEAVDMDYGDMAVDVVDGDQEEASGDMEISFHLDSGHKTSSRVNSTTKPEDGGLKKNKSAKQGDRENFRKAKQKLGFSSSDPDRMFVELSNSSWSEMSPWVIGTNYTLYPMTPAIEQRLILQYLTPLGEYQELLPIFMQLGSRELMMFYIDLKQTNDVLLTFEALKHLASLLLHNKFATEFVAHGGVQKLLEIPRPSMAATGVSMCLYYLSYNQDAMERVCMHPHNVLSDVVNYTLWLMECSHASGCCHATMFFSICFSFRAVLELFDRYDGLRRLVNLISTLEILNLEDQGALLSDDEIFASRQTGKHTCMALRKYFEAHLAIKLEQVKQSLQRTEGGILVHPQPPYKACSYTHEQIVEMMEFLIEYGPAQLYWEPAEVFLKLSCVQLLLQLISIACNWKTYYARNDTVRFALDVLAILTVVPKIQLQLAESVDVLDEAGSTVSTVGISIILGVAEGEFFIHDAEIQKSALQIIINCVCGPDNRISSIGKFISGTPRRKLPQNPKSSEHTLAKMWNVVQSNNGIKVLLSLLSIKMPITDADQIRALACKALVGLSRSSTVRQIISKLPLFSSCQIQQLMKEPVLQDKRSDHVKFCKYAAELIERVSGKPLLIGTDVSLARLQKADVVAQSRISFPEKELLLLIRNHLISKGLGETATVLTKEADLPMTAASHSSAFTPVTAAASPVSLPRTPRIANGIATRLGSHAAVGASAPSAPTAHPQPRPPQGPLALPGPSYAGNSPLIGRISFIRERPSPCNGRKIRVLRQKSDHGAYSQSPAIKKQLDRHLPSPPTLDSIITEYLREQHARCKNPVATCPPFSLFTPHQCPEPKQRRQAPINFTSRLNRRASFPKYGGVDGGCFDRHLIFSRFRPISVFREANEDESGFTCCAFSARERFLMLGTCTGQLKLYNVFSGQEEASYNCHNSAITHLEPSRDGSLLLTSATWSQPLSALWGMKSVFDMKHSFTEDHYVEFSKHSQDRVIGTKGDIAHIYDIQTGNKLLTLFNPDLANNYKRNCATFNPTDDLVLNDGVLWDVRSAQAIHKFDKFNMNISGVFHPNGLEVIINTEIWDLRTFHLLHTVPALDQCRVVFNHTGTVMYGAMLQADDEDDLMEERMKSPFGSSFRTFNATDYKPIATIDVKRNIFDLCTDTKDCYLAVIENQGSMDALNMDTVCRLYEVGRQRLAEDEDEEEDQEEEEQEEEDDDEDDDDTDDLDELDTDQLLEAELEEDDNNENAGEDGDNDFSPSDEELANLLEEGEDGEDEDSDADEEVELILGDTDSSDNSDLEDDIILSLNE
It gave 15200 a.u. for “SYPRO Orange fluorescence” (WDR5; 60.61 °C).
The “SYPRO Orange fluorescence” was 16100 a.u. (DCAF1; 47.4 °C).
DCAF1; 74.01 °C — “SYPRO Orange fluorescence”: 44800 a.u.
The “SYPRO Orange fluorescence” was 30400 a.u. (DCAF1; 92.61 °C).
WDR5; 88.81 °C — “SYPRO Orange fluorescence”: 56700 a.u.
For DCAF1; 80.61 °C: “SYPRO Orange fluorescence” read 39500 a.u.
It gave 15400 a.u. for “SYPRO Orange fluorescence” (WDR5; 47.6 °C).

Set 2
Host: female CD-1 mouse
Sample: plasma
Route: oral
Dose: 60 mg/kg
The AUC(0-t) of Cc1ccc(O)c(C)c1-c1cnc2[nH]c(-c3cnc(N4CCC5(CC4)CC(N4CCN(c6ccc(NC7CCC(=O)NC7=O)cc6F)CC4)CO5)nc3)cc2c1C#N (centres unmarked) is reported as 8630 ng·h/mL.
With Cc1ccc(O)c(C)c1-c1cnc2[nH]c(-c3cnc(N4CCC(CCN5CCN(c6ccc(NC7CCC(=O)NC7=O)cc6F)CC5)CC4)nc3)cc2c1C#N (centres unmarked) the AUC(0-t) was 7540 ng·h/mL.
For Cc1ccc(O)c(C)c1-c1cnc2[nH]c(-c3cnc(N4CCC(CN5CCN(c6ccc7c(c6)C(=O)N(C6CCC(=O)NC6=O)C7=O)CC5)CC4)nc3)cc2c1C#N (centres unmarked), the AUC(0-t) was 16400 ng·h/mL.
The AUC(0-t) of Cc1ccc(O)c(C)c1-c1cnc2[nH]c(-c3cnc(N4CCC(CN5CCN(c6ccc(NC7CCC(=O)NC7=O)cc6F)CC5)CC4)nc3)cc2c1C#N (centres unmarked) is reported as 28700 ng·h/mL.
The AUC(0-t) of Cc1ccc(O)c(C)c1-c1cnc2[nH]c(-c3cnc(N4CCC(CN5CCN(c6ccc7c(c6F)CN(C6CCC(=O)NC6=O)C7=O)CC5)CC4)nc3)cc2c1C#N (centres unmarked) is reported as 10500 ng·h/mL.
Cc1ccc(O)c(C)c1-c1cnc2[nH]c(-c3cnc(N4CCC(CN5CCN(c6cc7c(cc6F)c(N6CCC(=O)NC6=O)nn7C)CC5)CC4)nc3)cc2c1C#N has an AUC(0-t) of 10900 ng·h/mL.

Set 3
SMILES: Cc1ncsc1-c1ccc(C(CO)NC(=O)C2CC(O)CN2C(=O)C(C(C)C)n2cc(-c3ccc(COc4c(-c5c(C)c(F)cc6[nH]ncc56)c(C5CC5)cc5c(N6CC7CC6CN7)nc(OC6CCOCC6)nc45)cc3)nn2)cc1 (centres unmarked)
mouse, PK-59 xenograft; 3 mg/kg, day 0 — body weight: 23 g and 24.1 g and 23.7 g.
The body weight was 26 g and 24.2 g and 26.1 g (mouse, PK-59 xenograft; 30 mg/kg, day 14).
mouse, PK-59 xenograft; subcutaneous, 30 mg/kg once daily, day 15 — body weight: 19.7 g and 18.1 g and 20.1 g and 19.6 g.
For mouse, A-375 xenograft; sc, 30 mg/kg once daily, day 15: body weight read 19.9 g and 18.5 g and 19.7 g and 18.4 g and 19.4 g.
The body weight was 28.5 g and 24.3 g and 25.6 g and 26.1 g and 25.2 g (mouse, PK-59 xenograft; 10 mg/kg, day 21).
It gave 25.4 g and 27 g for body weight (mouse, lung LXFA sample B PDX; 30 mg/kg twice weekly, day 18).
For mouse, A-375 xenograft; sc, 30 mg/kg once daily, day 3: body weight read 19.8 g and 18.7 g and 18.8 g and 17.7 g.

Other studies, line by line
CN1CCC[C@H]1COc1nc2c(c(N3CCN(C(=O)C(F)(F)F)[C@@H](CC#N)C3)n1)CCN(c1cccc3cccc(Cl)c13)C2 has a pIC50 of 5.57 (HEK293 RAS-independent; cell growth, CellTiter-Glo).
The normalized BRET of C#Cc1cccc2cc(O)cc(-c3ncc4c(N5CC6CCC(C5)N6)nc(OCC56CCCN5CCC6)nc4c3F)c12 is reported as 85.3% and 99.5% and 102% (GTPase HRas (HRAS, Homo sapiens, UniProt P01112); binding, competitor, NanoBRET; HEK293; 1.52 nM).
CN1CCC[C@H]1COc1nc2c(c(N3CCN(C(=O)C4CC4)[C@@H](CC#N)C3)n1)CCN(c1cccc3cccc(Cl)c13)C2 gave a pIC50 of 5.42 (HEK293 RAS-independent; cell growth, CellTiter-Glo).

Repeated from above (set 3):
The body weight was 28.5 g and 24.3 g and 25.6 g and 26.1 g and 25.2 g (mouse, PK-59 xenograft; 10 mg/kg, day 21).
It gave 25.4 g and 27 g for body weight (mouse, lung LXFA sample B PDX; 30 mg/kg twice weekly, day 18).
